Measured values pooled from the literature.
Each numbered part is a random draw from the data of one study; scales do not carry over between parts. Substitutions count along the parent as printed.

Set 1 — target: CCNB1, cyclin fold, Cln2 fusion (human); technique: yeast growth competition, sequencing; sample: yeast; setting: strong parent motif; baseline: not given; reading: higher = stronger binding
Starting sequence: INSM1 docking peptide (human); PKAIRKLHFEDEV; partner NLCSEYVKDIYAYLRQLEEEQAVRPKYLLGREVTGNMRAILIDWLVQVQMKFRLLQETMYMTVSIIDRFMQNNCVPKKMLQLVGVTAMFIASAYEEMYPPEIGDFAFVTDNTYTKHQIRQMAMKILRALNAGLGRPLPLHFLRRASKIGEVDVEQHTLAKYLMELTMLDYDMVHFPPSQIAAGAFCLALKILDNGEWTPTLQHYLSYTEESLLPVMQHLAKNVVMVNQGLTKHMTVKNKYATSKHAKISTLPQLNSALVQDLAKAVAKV
Change | normalised enrichment score
K2F | 3.37
D11C | 1.49
E12N | 1.2
A3P | 1.69
K2N | 3.89
K2H | 2.76
K2E | 3.78
K2V | 3
I4M | 1.13
E12G | 1.28
F9M | 0.485
H8G | 0.679
H8P | 0.516
L7R | 0.561

Set 2 — technique: protein binding microarray; molecule type: double-stranded DNA, one strand shown; sample: in vitro; tested at: not given; baseline: not given; reading: higher = stronger binding
Target: Histone acetyltransferase KAT6A, winged helix 1, GST fusion (KAT6A, Homo sapiens, UniProt Q92794, residues 1-85)
Setting: 8-mer, flanks averaged, mean of 2 arrays, mostly near background
Construct (chain): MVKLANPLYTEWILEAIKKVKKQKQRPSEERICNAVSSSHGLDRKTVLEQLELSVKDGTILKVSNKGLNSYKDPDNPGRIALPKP
Oligonucleotide | E-score
AGGGAGGG | -0.226
GACGTGAC | -0.0713
ATCCCTAG | -0.102
TATTGCGA | 0.112
TCGAATCA | -0.186
AGATTGCG | 0.0859
AGCAAGCC | -0.0962
ACGACGTA | 0.033
AGCGGGTG | 0.278
ACCGCAGA | 0.144
GAAGACCA | -0.121

Set 3 — technique: protein-binding microarray; molecule type: double-stranded DNA, one strand shown; sample: in vitro; tested at: 0.8 µM; setting: whole 60-bp probe, no competitor; reading: higher = stronger binding
Target: Centromere-binding protein 1, full length, N-terminal tag (CBF1, Saccharomyces cerevisiae, UniProt P17106, residues 1-351)
UniProt P17106, sequence (whole entry, looked up): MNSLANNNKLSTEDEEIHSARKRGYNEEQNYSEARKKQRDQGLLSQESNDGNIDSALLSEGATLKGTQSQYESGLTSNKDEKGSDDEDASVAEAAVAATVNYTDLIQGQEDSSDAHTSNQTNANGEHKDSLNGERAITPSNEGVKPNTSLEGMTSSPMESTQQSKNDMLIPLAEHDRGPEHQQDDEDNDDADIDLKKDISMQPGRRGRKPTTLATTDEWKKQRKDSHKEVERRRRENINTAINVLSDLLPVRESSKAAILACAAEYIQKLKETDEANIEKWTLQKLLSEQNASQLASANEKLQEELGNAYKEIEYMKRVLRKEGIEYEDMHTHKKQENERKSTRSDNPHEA
Oligonucleotide | fluorescence intensity
GAATCCATTAATTGTCACCTTATGTTTTGTGTATAGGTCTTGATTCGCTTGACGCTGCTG | 572 a.u.
CTAAATGACATATGTCACGTGCTTTAGGGCTTGTTCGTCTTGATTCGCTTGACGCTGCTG | 16500 a.u.
CTAGCGTTAGCAGGTGGTGCCAGTGGATTTTCATTCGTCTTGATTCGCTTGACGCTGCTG | 525 a.u.
CTAACATTTTAACTACACGTTTAAAATATTCAATTCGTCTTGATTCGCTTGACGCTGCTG | 566 a.u.
GAATGTGATTGTCGTCACCTTGCCATCCTCTCTTAGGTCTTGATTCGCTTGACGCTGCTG | 536 a.u.
CTATAGTTATACCCCCACGTTTGCTGGGTCTCATTCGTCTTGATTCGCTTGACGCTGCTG | 524 a.u.
CTATTGGCTATGAACCACGCGTCATTAATGTGTTTCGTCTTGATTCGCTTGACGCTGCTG | 599 a.u.
GAAGCTCTAGCTGATCAGCTGTTTTTGGTTTCTTAGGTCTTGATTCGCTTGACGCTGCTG | 835 a.u.
CTATCAACAAAATGGGGCGTGATGAAGAAAAAATTCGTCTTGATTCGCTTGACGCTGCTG | 950 a.u.
GAAACATAACAGCATCATGCAAGCCTTTAAAAATAGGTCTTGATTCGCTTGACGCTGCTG | 515 a.u.
TGTACGAAGCTATTACACATGGATATAGTAGTTAGGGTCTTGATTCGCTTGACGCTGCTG | 509 a.u.

Single results of other studies
Molecule | target | assay | system | setting | how to read | quantity | result
PhoQ, residues 284 288 289 292 302 303 AAQSYM | PhoP, residues 12 14 15 18 19 NYFRM (Escherichia coli, UniProt P23836) | Sort-seq, measured: YFP reporter | E. coli | PhoQ-PhoP variant library, added: 10 µM Mg2+ | baseline: high Mg2+ state, higher = stronger signaling | fold induction | 16.6

A few entries again (set 2):
Oligonucleotide | E-score
ATCCCTAG | -0.102
AGGGAGGG | -0.226
AGCAAGCC | -0.0962
GACGTGAC | -0.0713
AGCGGGTG | 0.278
